# Experimental data from different studies.
# Parts stem from different laboratories: compare values within a part only.

# Series 1
# Target: Phosphate system positive regulatory protein PHO4, full length, GST-tagged (PHO4, Saccharomyces cerevisiae, UniProt P07270, residues 1-312)
# Method: competition protein-binding microarray
# Form: double-stranded DNA, one strand shown
# Matrix: in vitro
# Concentration: 2 µM
# Notes: whole 60-bp probe, lowest competitor level
# Together with: Cbf1 competitor, 0.05 µM
# Reading: higher = stronger binding
# Residues (chain): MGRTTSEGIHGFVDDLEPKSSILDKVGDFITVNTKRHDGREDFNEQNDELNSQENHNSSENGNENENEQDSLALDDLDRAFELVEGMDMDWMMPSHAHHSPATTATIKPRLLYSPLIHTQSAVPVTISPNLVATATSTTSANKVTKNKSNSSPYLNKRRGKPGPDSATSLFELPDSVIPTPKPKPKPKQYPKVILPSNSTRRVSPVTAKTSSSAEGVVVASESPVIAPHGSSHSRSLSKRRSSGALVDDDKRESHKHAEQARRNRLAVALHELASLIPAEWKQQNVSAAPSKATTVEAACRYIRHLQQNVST
Sequence,fluorescence intensity [a.u.]
CGTCCTAGTGATTGTCCCGTGGGTGCCATGAGGAAGGTCTTGATTCGCTTGACGCTGCTG,10700
GGATCTTCTCTTCTTCACCGGCGAGATGGGCTGCGGGTCTTGATTCGCTTGACGCTGCTG,2580
TGCCATCATCAATTGCACGTTTTCAAGTATTTATAAGTCTTGATTCGCTTGACGCTGCTG,13500

# Series 2
# Target: Histone acetyltransferase KAT6A, both winged helices, GST fusion (KAT6A, Homo sapiens, UniProt Q92794, residues 1-181)
# Method: protein binding microarray
# Form: double-stranded DNA, one strand shown
# Matrix: in vitro
# Concentration: not given
# Notes: 8-mer, flanks averaged, mean of 2 arrays, mostly near background
# Relative to: not given
# Reading: higher = stronger binding
# Construct (chain): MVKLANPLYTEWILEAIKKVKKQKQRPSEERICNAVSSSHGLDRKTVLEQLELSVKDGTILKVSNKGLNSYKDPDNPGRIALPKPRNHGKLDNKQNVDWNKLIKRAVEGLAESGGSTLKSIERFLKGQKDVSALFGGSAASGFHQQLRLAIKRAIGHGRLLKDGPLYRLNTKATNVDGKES
Sequence,E-score
CCGAGAAG,0.125
ATCTCTAA,-0.14
ATGGAATA,-0.0924
CGGTCAGC,0.116
CCAGACTA,-0.184
GCTGAGAA,-0.264

# Series 3
# Target: POU, POU domain (Salpingoeca helianthica)
# Method: Spec-seq
# Form: double-stranded DNA, one strand shown
# Matrix: in vitro
# Concentration: not given
# Notes: whole probe, mean of replicates
# Relative to: not given
# Reading: lower = stronger binding
# Target sequence (chain): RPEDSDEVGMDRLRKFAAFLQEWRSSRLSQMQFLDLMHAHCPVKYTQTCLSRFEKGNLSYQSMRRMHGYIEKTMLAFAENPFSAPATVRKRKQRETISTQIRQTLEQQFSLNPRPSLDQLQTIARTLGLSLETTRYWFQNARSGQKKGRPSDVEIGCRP
Sequence,relative binding energy
GAGTCGTCTCGTCAGCACCAGATAATCCGTAGAGCACTCAGGTC,0.381 ln ratio
GAGTCGTCTCGTCAGCACATGCCAAACCGTAGAGCACTCAGGTC,1.29 ln ratio
GAGTCGTCTCGTCAGCACCCGGTAATCCGTAGAGCACTCAGGTC,0.548 ln ratio

# Other studies, line by line
Substance,target,assay,test system,setting,scale,endpoint,result
"PhoQ, residues 284 288 289 292 302 303 SACGEM","PhoP, residues 12 14 15 18 19 NIMAP (Escherichia coli, UniProt P23836)","Sort-seq, refers to: YFP reporter",E. coli,"PhoQ-PhoP variant library, together with: 10 µM Mg2+","relative to: high Mg2+ state, higher = stronger signaling",fold induction,2.91

# For quick reference, copied from above (series 2):
Sequence,E-score
CCAGACTA,-0.184
